# Results from different studies.
# Each numbered part is a random draw from the data of one study; scales do not carry over between parts. Positions count from the first letter of the parent shown.

# Set 1
# Target: ABI1, truncated, D143A, DHFR fusion (Arabidopsis thaliana)
# Method: DHFR PCA, deep sequencing
# Medium: yeast
# Notes: methotrexate growth selection, single substitutions
# Together with: (+)-ABA 1.4 µM
# Relative to: wild-type fitted maximum
# Reading: higher = stronger binding
# Starting sequence: PYL1, truncated, DHFR fusion (Arabidopsis thaliana); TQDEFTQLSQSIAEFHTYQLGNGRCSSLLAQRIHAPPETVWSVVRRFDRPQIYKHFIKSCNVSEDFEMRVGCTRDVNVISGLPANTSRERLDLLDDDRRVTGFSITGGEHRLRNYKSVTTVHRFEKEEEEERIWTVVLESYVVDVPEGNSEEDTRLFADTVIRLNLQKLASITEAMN
Variant,relative binding score [%]
F5E,29.7
V143L,-12.4
N114W,4.35
T1D,57.1
V44G,-13.6
E151C,47.5
Q7A,72
R99C,39.3
R49Y,19.9
D95F,-11.2
L112E,-3
D95H,2.8
D65L,11.3
V121L,21.2
I57E,-23.9
E128A,67.5
S104D,-3.99
T17R,5.67
H110A,16

# Set 2
# Target: Phosphate system positive regulatory protein PHO4, full length, GST-tagged (PHO4, Saccharomyces cerevisiae, UniProt P07270, residues 1-312)
# Method: competition protein-binding microarray
# Molecule type: double-stranded DNA, one strand shown
# Medium: in vitro
# Tested at: 2 µM
# Notes: whole 60-bp probe, lowest competitor level
# Together with: Cbf1 competitor, 0.05 µM
# Reading: higher = stronger binding
# Target sequence (chain): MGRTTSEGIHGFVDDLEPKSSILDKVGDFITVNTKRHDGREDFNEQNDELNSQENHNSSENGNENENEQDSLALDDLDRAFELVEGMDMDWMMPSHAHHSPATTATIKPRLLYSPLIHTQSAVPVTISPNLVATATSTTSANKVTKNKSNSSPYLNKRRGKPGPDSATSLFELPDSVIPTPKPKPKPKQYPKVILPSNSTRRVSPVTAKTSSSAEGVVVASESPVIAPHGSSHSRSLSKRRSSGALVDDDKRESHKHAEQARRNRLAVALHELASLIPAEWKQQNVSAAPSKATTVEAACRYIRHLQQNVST
Strand,fluorescence intensity [a.u.]
CTTCTGTAAATTTGTACTGTGGGTGGACGCGCCCCGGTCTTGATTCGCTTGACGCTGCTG,3930
TTCCCAGTGAAATTTCACGTGATGGAATCTGATGAAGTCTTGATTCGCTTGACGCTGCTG,9810
CTTTCCCGATCTTGTCACTACACTTTAGCACATTTGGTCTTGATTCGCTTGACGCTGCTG,3860
TAATTTTCAAACGACCACGCACCGCGAGAGAAAAGAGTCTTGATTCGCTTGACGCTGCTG,7420
TTCTAGGTTTAACTTCACGTGTTCCCCACCGAGGCGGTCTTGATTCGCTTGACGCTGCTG,12400
TCGCACTGAAGCGATCAGCTGATGAACAGGCGGTACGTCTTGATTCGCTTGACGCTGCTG,2930
TGCATTTGCTTATTGAACGTGAAGTGGAATTGGGGCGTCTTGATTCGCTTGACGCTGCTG,7180
AGGAAGCTGATAAGCAACGTGGTGATGAACAGTATGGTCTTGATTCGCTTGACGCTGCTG,14500
CTAACGAAGGTTTGTAACGTGGGTGACAAGCCAAGTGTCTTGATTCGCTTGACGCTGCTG,9450
CCAAAGGGTCCCCATCACGTCTGGTCCGGGCTTTCCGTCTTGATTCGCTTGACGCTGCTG,3690
TGTATAAGGACTACCCACGTGAGACCGTTTCCAAACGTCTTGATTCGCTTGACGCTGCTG,16000
AACTTCGAAATTGGGAGCGTGGGACCAGAAACTTCCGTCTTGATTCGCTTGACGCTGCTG,8160
CTTTCCCGATCTTTTCACGTGCAGTTAGCACATTTGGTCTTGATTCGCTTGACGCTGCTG,13800
AAAGCGGTAATTTGTCACCGCACTTCACATATCTATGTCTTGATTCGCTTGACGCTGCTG,4200
AGCTTTGAAAACTCCCATGTGGCGCGCCCGTCTTAAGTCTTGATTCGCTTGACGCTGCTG,9100
CAAACCACTTTGGTTACCGTGACGAACTGCGAATCTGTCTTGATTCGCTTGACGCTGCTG,3200
ACCCTTACCGGCCTTGACGTGGGTAACAGCGGTAGCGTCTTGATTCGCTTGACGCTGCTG,4570
CTTCTGTAAATTTGTCACCATACTTGACGCGCCCCGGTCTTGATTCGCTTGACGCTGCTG,3780

# Set 3
# Target: Sal-like protein 4, full length isoform B (SALL4, Homo sapiens, UniProt Q9UJQ4-2, residues 1-616)
# Method: universal PBM
# Molecule type: double-stranded DNA, one strand shown
# Medium: in vitro
# Tested at: not given
# Notes: 8-mer, flanks averaged, mean of replicates
# Reading: higher = stronger binding
Strand,E-score
ACAGGCGA,-0.128
ATGCATCC,-0.158
ATTGCGAA,0.184
ATAAACAA,0.357
CGGCACGA,-0.276
ATAAAGCC,0.0894
AATGGTAG,0.201
ACTAAGCT,-0.00929
GACTCGGC,-0.361
CCAGCTCC,-0.283
ATGGACCC,-0.14
CTCAAGCC,-0.295
CCGACACC,-0.229
ACCTTGCA,-0.0588
ATCAACGA,-0.0417
ATTGGGGG,0.13
AGTAGATC,0.0568
GCGTACCA,-0.068
ACCATTTG,0.138
CCCGCTCG,-0.237
CAACCTAC,0.00074
ATGCTCCC,-0.113
CCTCGTCA,0.0266
GCATCGCC,-0.122

# Set 4
# Target: Interferon regulatory factor 5, full length, phosphomimetic (IRF5, Homo sapiens, UniProt Q13568-2, residues 1-514, K96S/S451D/S453D/S456D/S462D)
# Method: protein-binding microarray
# Molecule type: double-stranded DNA, one strand shown
# Medium: in vitro
# Tested at: 250 nM
# Notes: 60-bp whole probe
# Together with: salmon DNA 0.4 mg/ml
# Relative to: random background probes
# Reading: higher = stronger binding
# All sequences stand within: GCCTAGCAC … GTCTTGATTCGCTTGACGCTGCTG
Strand,log fluorescence [z-score]
GACGTTATCCTTTTCCTGACGTGCTAG,0.529
TTAGGTATCGCTCTCGGTTAGTGCTAG,3
TTAGGTTTTCTTATCCTTTAGTGCTAG,0.656
TTAGGACTGCTGATCCTTTAGTGCTAG,-0.335
TTAGGAATCGGGTTTCGGTTAGTGCTA,8.12
TTAGATCGCAGTCTCGATTAGTGCTAG,0.39
TTAGGACTGGACACTGGGTTTGTGCTA,-0.3
GTTTGTCCCTATTTAAGATAGTGCTAG,0.354
GACGGTCTCGGGTTCGGGACGTGCTAG,-0.235
ACCCTCATTCTACTATCGATGTGCTAG,5.04
GACGATTTCAGTTACGAGACGTGCTAG,1.59
TCATATATGTGTATATAACTGTGCTAG,0.613
TTAGATCTCAGTTTCGATTGGTGCTAG,9.12
GACGGTTTCCGGTATCGGGACGTGCTA,2.37
TTCATTTTTTTTTTCATCATGTGCTAG,1.73
CTTGGTAAATTTAGCCGACGGTGCTAG,-0.351
GTTTTTTGGTTTCTGGTTTAGTGCTAG,4.28
TTAGGTCTCCTTATCCTTCAGTGCTAG,-0.166
TCAGTTTTCTTTTCCATTTTGTGCTAG,2.46

# Set 5
# Target: ATF7, bZIP domain (human)
# Method: DHFR protein complementation
# Medium: yeast
# Notes: single substitutions, most at no-binding floor
# Relative to: wild-type JUN-FOS pair
# Reading: higher = stronger binding
# Starting sequence: JUN, bZIP domain (human); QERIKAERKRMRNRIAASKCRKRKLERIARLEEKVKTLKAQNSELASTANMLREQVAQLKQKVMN; partner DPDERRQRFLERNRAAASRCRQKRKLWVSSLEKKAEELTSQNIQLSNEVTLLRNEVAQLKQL
Variant,binding fitness
L52H,-1.47 natural log
T48C,-1.05 natural log
E32M,-0.991 natural log
R30M,-0.678 natural log
E54N,-0.926 natural log
T48L,-0.822 natural log
I28W,-0.853 natural log
E33P,-1.38 natural log
M51W,-1.1 natural log
A29K,-1 natural log
A57R,-0.909 natural log
E44W,-1.23 natural log
A49P,-1.47 natural log
R30C,-0.952 natural log
L31E,-1.48 natural log
K39H,-1.05 natural log
T37V,-0.864 natural log
L31S,-1.52 natural log
R53V,-1.47 natural log
T37W,-0.858 natural log
E44C,-1.17 natural log
E33S,-1.19 natural log
M51Q,-0.868 natural log
Q41H,-1.13 natural log
V35G,-1.47 natural log

# Set 6
# Target: CCNE1, cyclin fold, Cln2 fusion (human)
# Method: yeast growth competition, sequencing
# Medium: yeast
# Notes: weak parent motif
# Relative to: not given
# Reading: higher = stronger binding
# Starting sequence: WEE1 docking peptide (human); HKTFRKLRLFDTP
Variant,normalised enrichment score
F10D,-0.178
R5F,0.488
R8F,0.237
H1A,-0.226
D11K,0.485
D11M,0.789
D11E,0.761
P13W,0.0236
T12F,1.36
L7E,0.827
K2S,0.3
R8K,1.13
K6N,0.525
R5W,0.989
L9Y,1.16
L9K,-0.426
K6F,-0.977
L9V,0.516
D11Y,0.294
H1I,1.4
K6Q,0.374
D11R,0.322

# For quick reference, copied from above (set 2):
Strand,fluorescence intensity [a.u.]
CTTCTGTAAATTTGTACTGTGGGTGGACGCGCCCCGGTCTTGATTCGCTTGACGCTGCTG,3930
TTCCCAGTGAAATTTCACGTGATGGAATCTGATGAAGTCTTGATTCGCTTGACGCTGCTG,9810
CTTTCCCGATCTTGTCACTACACTTTAGCACATTTGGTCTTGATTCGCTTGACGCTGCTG,3860
TAATTTTCAAACGACCACGCACCGCGAGAGAAAAGAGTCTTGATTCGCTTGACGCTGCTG,7420
TTCTAGGTTTAACTTCACGTGTTCCCCACCGAGGCGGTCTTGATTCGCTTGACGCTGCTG,12400
TCGCACTGAAGCGATCAGCTGATGAACAGGCGGTACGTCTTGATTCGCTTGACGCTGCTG,2930
TGCATTTGCTTATTGAACGTGAAGTGGAATTGGGGCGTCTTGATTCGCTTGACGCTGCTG,7180
AGGAAGCTGATAAGCAACGTGGTGATGAACAGTATGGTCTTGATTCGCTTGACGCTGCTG,14500
CTAACGAAGGTTTGTAACGTGGGTGACAAGCCAAGTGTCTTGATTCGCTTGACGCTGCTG,9450
CCAAAGGGTCCCCATCACGTCTGGTCCGGGCTTTCCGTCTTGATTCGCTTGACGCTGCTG,3690
TGTATAAGGACTACCCACGTGAGACCGTTTCCAAACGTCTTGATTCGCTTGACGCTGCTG,16000
AACTTCGAAATTGGGAGCGTGGGACCAGAAACTTCCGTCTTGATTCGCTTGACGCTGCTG,8160
CTTTCCCGATCTTTTCACGTGCAGTTAGCACATTTGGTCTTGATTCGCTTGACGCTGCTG,13800
AAAGCGGTAATTTGTCACCGCACTTCACATATCTATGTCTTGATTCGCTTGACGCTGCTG,4200
AGCTTTGAAAACTCCCATGTGGCGCGCCCGTCTTAAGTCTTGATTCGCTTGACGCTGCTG,9100
CAAACCACTTTGGTTACCGTGACGAACTGCGAATCTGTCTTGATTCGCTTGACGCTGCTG,3200
ACCCTTACCGGCCTTGACGTGGGTAACAGCGGTAGCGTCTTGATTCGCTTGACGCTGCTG,4570
